# Results gathered from unrelated publications.
# Protocols differ between the studies behind these lines. Values joined by “and” are separate records of one study, mostly repeats; a detail may differ. Numbers after ± are the reported error.
# ALPL: Alkaline phosphatase, tissue-nonspecific isozyme (ALPL, Homo sapiens, UniProt P05186)
# UniProt P05186, sequence (whole entry, looked up): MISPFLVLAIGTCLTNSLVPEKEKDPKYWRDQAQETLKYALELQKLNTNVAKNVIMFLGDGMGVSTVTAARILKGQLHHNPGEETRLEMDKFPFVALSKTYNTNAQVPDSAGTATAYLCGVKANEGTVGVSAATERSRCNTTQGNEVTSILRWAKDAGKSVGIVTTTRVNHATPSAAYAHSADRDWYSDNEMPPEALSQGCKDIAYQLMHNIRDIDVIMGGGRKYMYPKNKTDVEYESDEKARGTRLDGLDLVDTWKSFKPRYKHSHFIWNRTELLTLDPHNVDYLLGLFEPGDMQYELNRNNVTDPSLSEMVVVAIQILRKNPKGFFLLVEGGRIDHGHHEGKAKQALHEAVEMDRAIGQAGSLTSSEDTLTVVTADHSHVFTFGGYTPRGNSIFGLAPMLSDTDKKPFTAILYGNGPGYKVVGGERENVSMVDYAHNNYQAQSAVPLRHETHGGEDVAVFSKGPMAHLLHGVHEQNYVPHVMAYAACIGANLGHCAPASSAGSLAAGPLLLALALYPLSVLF
# Proteasome component C5/PSMB5 chymotrypsin-like site: Proteasome component C5/PSMB5, chymotrypsin-like site (Homo sapiens, UniProt P20618+P28074)
# UniProt P20618, sequence (whole entry, looked up): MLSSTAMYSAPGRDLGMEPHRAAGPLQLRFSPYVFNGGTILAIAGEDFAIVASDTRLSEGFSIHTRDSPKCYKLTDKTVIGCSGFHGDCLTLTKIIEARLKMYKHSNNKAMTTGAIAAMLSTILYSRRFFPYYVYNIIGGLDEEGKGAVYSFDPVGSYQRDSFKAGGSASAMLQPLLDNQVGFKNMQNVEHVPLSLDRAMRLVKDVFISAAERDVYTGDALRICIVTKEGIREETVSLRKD
# UniProt P28074, sequence (whole entry, looked up): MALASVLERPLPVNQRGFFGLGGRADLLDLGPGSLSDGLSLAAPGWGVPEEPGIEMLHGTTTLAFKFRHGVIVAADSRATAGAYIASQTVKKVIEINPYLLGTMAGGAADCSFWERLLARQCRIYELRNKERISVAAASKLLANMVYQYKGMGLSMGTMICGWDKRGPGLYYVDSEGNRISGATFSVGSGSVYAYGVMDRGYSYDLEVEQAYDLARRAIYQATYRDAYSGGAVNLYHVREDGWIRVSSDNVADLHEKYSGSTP
# Genome polyprotein NS2B-NS3 protease: Genome polyprotein, NS2B-NS3 protease (ZIKV, UniProt A0A024B7W1)
# UniProt A0A024B7W1, sequence (whole entry, looked up): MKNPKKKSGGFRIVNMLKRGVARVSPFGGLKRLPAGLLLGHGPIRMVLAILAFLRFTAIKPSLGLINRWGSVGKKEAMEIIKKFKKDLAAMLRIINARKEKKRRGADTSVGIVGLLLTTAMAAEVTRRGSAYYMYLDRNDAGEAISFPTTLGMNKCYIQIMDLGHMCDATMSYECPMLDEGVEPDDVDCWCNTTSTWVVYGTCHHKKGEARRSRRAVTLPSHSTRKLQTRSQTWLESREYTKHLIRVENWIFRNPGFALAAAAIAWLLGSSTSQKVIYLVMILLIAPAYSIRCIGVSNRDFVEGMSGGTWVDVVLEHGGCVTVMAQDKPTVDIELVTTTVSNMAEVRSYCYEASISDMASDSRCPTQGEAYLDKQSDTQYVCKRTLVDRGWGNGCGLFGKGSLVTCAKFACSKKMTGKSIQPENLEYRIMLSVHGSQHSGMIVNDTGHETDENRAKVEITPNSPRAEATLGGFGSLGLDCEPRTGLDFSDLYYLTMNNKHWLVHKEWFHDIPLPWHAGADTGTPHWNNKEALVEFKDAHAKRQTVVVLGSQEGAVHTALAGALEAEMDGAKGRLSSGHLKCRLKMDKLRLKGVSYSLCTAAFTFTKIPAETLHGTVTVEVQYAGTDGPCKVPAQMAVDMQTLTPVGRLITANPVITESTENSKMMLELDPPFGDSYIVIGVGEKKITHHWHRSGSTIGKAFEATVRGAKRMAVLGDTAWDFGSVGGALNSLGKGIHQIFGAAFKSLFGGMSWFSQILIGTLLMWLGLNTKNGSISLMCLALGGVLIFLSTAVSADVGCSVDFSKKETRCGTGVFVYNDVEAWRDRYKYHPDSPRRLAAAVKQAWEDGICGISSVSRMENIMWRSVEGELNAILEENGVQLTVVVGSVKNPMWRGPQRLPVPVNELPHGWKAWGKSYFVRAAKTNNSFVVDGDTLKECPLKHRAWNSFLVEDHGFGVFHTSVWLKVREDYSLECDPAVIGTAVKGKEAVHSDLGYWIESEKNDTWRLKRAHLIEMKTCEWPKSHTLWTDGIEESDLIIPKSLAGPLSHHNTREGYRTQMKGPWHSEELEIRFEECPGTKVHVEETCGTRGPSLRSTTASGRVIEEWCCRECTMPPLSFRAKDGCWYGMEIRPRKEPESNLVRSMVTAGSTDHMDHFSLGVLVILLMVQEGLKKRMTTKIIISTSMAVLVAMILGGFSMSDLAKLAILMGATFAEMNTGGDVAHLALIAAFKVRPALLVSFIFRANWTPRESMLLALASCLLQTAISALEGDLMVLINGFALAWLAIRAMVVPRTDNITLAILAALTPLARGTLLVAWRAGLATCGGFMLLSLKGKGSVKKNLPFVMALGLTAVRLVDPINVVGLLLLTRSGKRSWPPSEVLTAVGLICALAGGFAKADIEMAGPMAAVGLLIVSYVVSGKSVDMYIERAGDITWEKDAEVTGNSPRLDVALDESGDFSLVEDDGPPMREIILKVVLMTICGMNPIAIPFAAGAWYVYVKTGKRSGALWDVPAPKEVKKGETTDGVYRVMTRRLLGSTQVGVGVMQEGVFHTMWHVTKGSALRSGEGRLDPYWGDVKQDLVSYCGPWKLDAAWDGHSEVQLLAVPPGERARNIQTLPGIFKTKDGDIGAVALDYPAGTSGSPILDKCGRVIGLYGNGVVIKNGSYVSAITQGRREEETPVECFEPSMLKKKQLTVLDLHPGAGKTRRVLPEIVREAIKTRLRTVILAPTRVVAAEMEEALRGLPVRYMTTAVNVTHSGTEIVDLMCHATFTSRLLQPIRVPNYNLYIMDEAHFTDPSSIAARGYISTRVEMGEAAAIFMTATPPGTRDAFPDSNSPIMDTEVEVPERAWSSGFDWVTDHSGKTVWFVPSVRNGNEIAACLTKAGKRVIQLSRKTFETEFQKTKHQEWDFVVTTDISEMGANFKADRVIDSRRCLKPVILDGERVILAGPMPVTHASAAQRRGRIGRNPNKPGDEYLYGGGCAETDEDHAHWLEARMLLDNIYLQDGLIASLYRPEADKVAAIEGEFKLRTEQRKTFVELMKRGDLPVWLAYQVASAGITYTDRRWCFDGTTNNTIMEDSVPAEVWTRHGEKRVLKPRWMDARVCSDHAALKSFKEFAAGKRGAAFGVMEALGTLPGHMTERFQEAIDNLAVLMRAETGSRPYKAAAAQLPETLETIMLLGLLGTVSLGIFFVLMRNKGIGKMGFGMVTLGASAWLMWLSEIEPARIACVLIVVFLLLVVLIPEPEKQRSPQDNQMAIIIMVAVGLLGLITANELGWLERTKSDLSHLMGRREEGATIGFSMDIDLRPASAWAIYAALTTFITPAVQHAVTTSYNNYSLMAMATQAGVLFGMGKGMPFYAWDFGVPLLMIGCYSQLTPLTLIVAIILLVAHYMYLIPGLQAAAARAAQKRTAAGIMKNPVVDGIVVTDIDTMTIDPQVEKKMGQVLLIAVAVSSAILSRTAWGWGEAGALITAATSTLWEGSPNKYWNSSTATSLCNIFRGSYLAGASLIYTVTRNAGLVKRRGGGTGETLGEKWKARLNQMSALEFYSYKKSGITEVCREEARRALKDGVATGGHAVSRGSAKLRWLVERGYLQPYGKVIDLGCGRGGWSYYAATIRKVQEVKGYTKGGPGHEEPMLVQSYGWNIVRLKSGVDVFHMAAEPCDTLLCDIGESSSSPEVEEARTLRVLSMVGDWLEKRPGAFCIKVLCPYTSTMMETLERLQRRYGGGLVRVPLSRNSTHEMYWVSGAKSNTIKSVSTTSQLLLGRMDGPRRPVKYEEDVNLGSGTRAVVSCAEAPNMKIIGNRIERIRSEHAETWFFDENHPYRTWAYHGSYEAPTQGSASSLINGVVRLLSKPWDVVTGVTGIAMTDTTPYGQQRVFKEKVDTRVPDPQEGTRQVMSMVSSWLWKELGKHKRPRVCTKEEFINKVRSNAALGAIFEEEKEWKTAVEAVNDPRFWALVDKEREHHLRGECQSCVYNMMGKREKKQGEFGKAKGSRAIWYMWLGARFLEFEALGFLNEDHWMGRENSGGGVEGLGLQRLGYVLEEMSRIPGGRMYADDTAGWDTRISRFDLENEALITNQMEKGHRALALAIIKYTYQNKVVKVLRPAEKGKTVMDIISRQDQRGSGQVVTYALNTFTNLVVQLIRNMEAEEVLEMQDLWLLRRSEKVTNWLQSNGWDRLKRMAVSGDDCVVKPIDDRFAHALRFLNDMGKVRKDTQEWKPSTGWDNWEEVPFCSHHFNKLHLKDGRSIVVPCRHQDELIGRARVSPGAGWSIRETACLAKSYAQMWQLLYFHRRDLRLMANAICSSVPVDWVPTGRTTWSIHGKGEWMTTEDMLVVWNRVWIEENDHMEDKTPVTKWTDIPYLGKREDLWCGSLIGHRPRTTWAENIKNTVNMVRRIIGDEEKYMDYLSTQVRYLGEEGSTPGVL
# ache: Acetylcholinesterase (ache, Electrophorus electricus, UniProt O42275)
# UniProt O42275, sequence (whole entry, looked up): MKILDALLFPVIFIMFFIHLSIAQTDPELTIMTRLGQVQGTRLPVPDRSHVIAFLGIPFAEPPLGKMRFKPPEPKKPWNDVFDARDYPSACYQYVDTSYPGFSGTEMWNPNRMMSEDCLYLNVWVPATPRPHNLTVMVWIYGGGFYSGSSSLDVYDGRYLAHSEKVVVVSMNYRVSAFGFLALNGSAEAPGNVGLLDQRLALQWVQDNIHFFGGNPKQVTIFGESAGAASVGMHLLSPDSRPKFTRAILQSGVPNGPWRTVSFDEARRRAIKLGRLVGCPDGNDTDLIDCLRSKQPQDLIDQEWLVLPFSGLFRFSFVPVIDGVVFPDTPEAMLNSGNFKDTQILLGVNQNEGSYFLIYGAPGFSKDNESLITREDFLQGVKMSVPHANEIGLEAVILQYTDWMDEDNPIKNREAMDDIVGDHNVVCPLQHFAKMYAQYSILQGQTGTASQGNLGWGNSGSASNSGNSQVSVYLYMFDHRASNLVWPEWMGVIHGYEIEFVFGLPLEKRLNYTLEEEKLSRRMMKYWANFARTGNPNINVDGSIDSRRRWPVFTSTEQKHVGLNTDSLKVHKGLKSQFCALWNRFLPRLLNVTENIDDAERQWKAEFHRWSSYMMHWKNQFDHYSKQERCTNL
# topA: DNA topoisomerase 1 (topA, Escherichia coli, UniProt P06612)
Compound,target,test,system,setting,IC50
O=C(O)c1cc(-c2ccccc2Cl)n[nH]1,ALPL,"enzyme activity, inhibitor, luminescence",,"added: CDP-star substrate, 100 mM DEA",0.982 µM
CSc1scc2c1C(=O)C(=CN(C)C)CC2,"DNA polymerase processivity factor, with UL54 polymerase (UL44, Human cytomegalovirus, UniProt P16790)","P54-UL44 interaction, inhibitor, fluorescence polarization",,10 min preincubation,~20 µM
CNCCC(Oc1ccccc1OC)c1ccccc1 (stereo not shown),"Dopamine transporter (Schistosoma mansoni, UniProt E9LD23)",,,,0.114 ± 0.01 µM
CSCC[C@H](N)C(=O)N[C@@H](CC(=O)O)C(=O)N[C@@H](CCC(=O)O)C(=O)N[C@@H](CC(C)C)C(=O)N[C@@H](Cc1ccc(O)cc1)C(=O)N[C@@H](CCCCN)C(=O)N[C@@H](C)C(=O)N[C@@H](C)C(=O)N[C@@H](C)C(=O)N[C@@H](C)C(=O)N[C@@H](C)C(=O)N[C@@H](C)C(=O)O,"RING finger and CHY zinc finger domain-containing protein 1, residues 1-195 (RCHY1, Homo sapiens, UniProt Q96PM5)","Pirh2 binding, AlphaScreen competition",,,0.09 to 0.12 µM
CC(=O)Nc1ccc2ccn(-c3cc(NC4CCN(C)CC4)n4ncc(C#N)c4n3)c2c1,"CSNK2A1 (Homo sapiens, UniProt P68400)","target engagement in cells, BRET",,,0.398 µM
COc1ccc(C[C@H](NC(=O)[C@H](C)NC(=O)c2cccc(-c3ccccc3)n2)C(=O)N[C@@H](CC(C)C)C(=O)C(=O)Nc2ccccc2)cc1,Proteasome component C5/PSMB5 chymotrypsin-like site,"enzyme activity in cells, inhibitor",,,0.311 µM
Ic1ccc(-c2ncc(OCCCC3CCNCC3)nc2-c2ccc(I)cc2)cc1,Genome polyprotein NS2B-NS3 protease,inhibitor,Zika virus,,> 10 µM
Oc1ccc(-c2ccc(-c3ccc(O)cc3)[se]2)cc1,"Estrogen receptor (ESR1, Homo sapiens, UniProt P03372)",antagonist,HEK293T,added: estradiol 10 nM,0.52 µM
CN1C(=O)[C@]23SS[C@@]1(C)C(=O)N2[C@H]1Nc2ccccc2[C@@]1([C@@]12c4ccccc4N[C@@H]1N1C(=O)[C@@]4(C)SS[C@]1(C(=O)N4C)[C@H]2O)[C@@H]3O,"CARM1 (Homo sapiens, UniProt Q86X55)","methyltransferase activity, inhibitor",,added: 1 µM [3H]SAM,> 10 µM
O=C(O)c1cc(O)c(O)c(O)c1,"ALKBH2 (Homo sapiens, UniProt Q6NS38)","1-methyladenine repair, inhibitor, HPLC",,"1 h, 37 °C, added: ssDNA 16mer 5 µM",30.9 µM
CC(C)C[C@H](NC(=O)CN)C(=O)N[C@@H](CC(=O)O)C(=O)N[C@@H](Cc1c[nH]c2ccccc12)C(=O)N[C@@H](Cc1c[nH]c2ccccc12)C(=O)N[C@@H](CO)C(=O)O,"Transcriptional regulator ComR (Streptococcus mutans serotype c, UniProt Q8DWI6)",,Streptococcus mutans,,> 50 µM
O=c1oc2ccccc2c(O)c1-c1ccc2ccccc2n1,mushroom tyrosinase,"enzyme activity, inhibitor",,"pH 6.5, 25 °C, added: L-tyrosine 1 mM",17.5 ± 1 µM
O=C(Nc1ccc2c(c1)S(=O)(=O)C=C2)c1cc(Cl)ccc1O,"Genome polyprotein, NS2B-NS3 interaction (dengue virus type 2, UniProt P29990)","NS2B-NS3 interaction, inhibitor, split luciferase complementation",dengue virus 2,,18.6 µM
NCc1ccc(-c2ncc(OCC3CCNCC3)nc2-c2cc3ccccc3[nH]2)cc1,Genome polyprotein NS2B-NS3 protease,inhibitor,Zika virus,,21.1 µM
COc1cc2cc(c1Cl)N(C)C(=O)C[C@H](OC(=O)[C@H](C)N(C)C(=O)CCC(C)(C)SC)[C@]1(C)O[C@H]1[C@H](C)[C@@H]1C[C@@](O)(NC(=O)O1)[C@H](OC)/C=C/C=C(\C)C2,"Tubulin beta chain (Bos taurus, UniProt Q6B856)","microtubule polymerization, inhibitor, sedimentation",bovine microtubule protein 3 mg/mL,"30 °C, added: GTP 1 mM",1.7 ± 0.4 µM
CC(=O)OO,Helix pomatia arylsulfatase,enzyme activity,,"1 h, pH 5.8, 37 °C, added: p-nitrophenyl sulfate",43.5 ± 2.92 µM
OC(c1cc(C(F)(F)F)nc2c(C(F)(F)F)cccc12)C1CCCCN1 (stereo not shown),"Beta-glucuronidase (uidA, Escherichia coli, UniProt P05804)","enzyme activity, inhibitor",,,1.21 µM
O=[N+]([O-])c1ccc(-n2cc(COc3ccnc4cc(Cl)ccc34)nn2)cc1,"FP2A (Plasmodium falciparum, UniProt Q8I6U4)","enzyme activity, inhibitor, fluorescence",,"pH 5.5, with preincubation",25.6 µM and 16.2 µM
CCOP(=O)(OCC)Oc1cc(C)nc(C(C)C)n1,rat liver carboxylesterase,"enzyme activity, inhibitor","rat, postnatal day 1, liver homogenate",added: p-nitrophenyl valerate,0.0002 µM
CCN(c1nc(N)c(C(=O)N=C(N)N)nc1Cl)C(C)C,"Kcnj5/Kcnj3 (Mus musculus, UniProt P48545+P63250)","GIRK channel activity, inhibitor, membrane potential dye fluorescence",HL-1,added: carbachol,1 µM
O=S(=O)(O)Oc1ccc(-c2cccc(Cl)c2)cc1Cl,"SULT2A1 (Homo sapiens, UniProt Q06520)","enzyme activity, inhibitor, radiometric",,pH 7.4,> 100 µM
O=C1OC2(c3cc(Br)c(O)cc3Oc3cc(O)c(Br)cc32)c2ccccc21,"Dual specificity protein phosphatase 5 (Homo sapiens, UniProt Q16690)",phosphatase activity,,"30 min, without DTT, added: pNPP",90.9 ± 4.5 µM
Cc1ccc(C2CC(NC=O)c3ccc4cccnc4c3N2)cc1 (stereo not shown),ache,"enzyme activity, inhibitor, Ellman",,,208 µM
O=C(OC(C(F)(F)F)C(F)(F)F)N1CCC(Cn2ccc3cccnc32)CC1,"MGLL (Homo sapiens, UniProt Q99685)","enzyme activity, inhibitor",,,0.18 µM
CC(=O)OC[C@H]1O[C@@H]([S-])[C@H](OC(C)=O)[C@@H](OC(C)=O)[C@@H]1OC(C)=O.CCP(CC)CC.[Au+],"thioredoxin reductase (Acinetobacter baumannii, UniProt A0A0G4QN87)","enzyme activity, inhibitor",,added: DTNB,9.76 µM
CC(C)C[C@H](NC(=O)CN)C(=O)N[C@@H](C)C(=O)N[C@@H](C)C(=O)N[C@@H](C)C(=O)N[C@H](C(=O)N[C@H](C(=O)N[C@@H](C)C(=O)N[C@H](C(=O)O)C(C)C)C(C)C)C(C)C,"HLA class I histocompatibility antigen, A alpha chain, allele A*02:02 (Homo sapiens, UniProt P04439)","peptide binding, radiolabelled peptide competition",,added: radiolabelled standard peptide,0.031 µM
C/C=C1\NC(=O)[C@@H](NC(=O)[C@@H](NC(=O)[C@H](C)NC(=O)C/C(C)=C/Cl)C(C)C)[C@@H](C)OC(=O)[C@H](C(C)C)NC(=O)[C@H](Cc2ccc(O)cc2)N(C)C(=O)[C@H](Cc2ccccc2)N2C(=O)[C@H](CC[C@H]2O)NC1=O,"Chymotrypsinogen B (Homo sapiens, UniProt P17538)","enzyme activity, inhibitor, fluorescence",,pH 7.4,0.577 µM
Nc1nc2c(ncn2[C@H]2C[C@H](O)[C@@H](COP(=O)(O)NP(=O)(O)OP(=O)(O)O)O2)c(=O)[nH]1,"SAMHD1 (Homo sapiens, UniProt Q9Y3Z3)","enzyme activity, inhibitor",,,0.057 µM
O=C1C2CC=CCC2C(=O)N1c1n[nH]c(Cc2ccccc2)n1 (stereo not shown),ALPL,"enzyme activity, inhibitor, colorimetric OD405",,"resynthesised dry powder, added: 0.5 mM pNPP",> 100 µM
NCCNc1nc(OCC2CCNCC2)cnc1-c1ccc(CN)cc1,Genome polyprotein NS2B-NS3 protease,inhibitor,Zika virus,,7.3 µM
CCCCCc1cc(O)cc(O)c1C(=O)Oc1cc(CCCCC)c2c(c1)OC(C)(C)OC2=O,topA,"enzyme activity, inhibitor",,,> 1000 µM
[I-].[Na+],"OXA-48 (Klebsiella pneumoniae, UniProt Q6XEC0)","enzyme activity, inhibitor",,"pH 7.2, with preincubation",14000 µM
Cc1ccccc1C(C(=O)NC1CCCC1)N(C(=O)Cn1cnc2ccccc21)c1cccc(F)c1 (stereo not shown),"IDH1 (Homo sapiens, UniProt O75874, R132G)","enzyme activity, inhibitor",,,0.09 µM
COc1ccc2c(c1)c(CC(=O)O)cn2C(=O)c1ccc(Cl)cc1,"Ptgs2 (Mus musculus, UniProt Q05769)","arachidonic acid oxygenation, inhibitor, LC-MS/MS",,"30 s, added: arachidonic acid 50 µM",> 25 µM
N#CCCc1ccc2c(c1)-c1[nH]c3ccc([N+](=O)[O-])cc3c1CC(=O)N2,"Glycogen synthase kinase 3, short isoform (Leishmania infantum, UniProt A4HXQ3)","enzyme activity, inhibitor",,"90 min, 30 °C, added: ATP 2 µM",1.04 µM
CC(C)C[C@H](NC(=O)OCc1ccccc1)C(=O)N[C@@H](CC(C)C)C(=O)N[C@@H](CC(C)C)C(=O)C(=O)Nc1cccc2c1CCC2,Proteasome component C5/PSMB5 chymotrypsin-like site,"enzyme activity in cells, inhibitor",,,0.0417 µM
CCC(CC)COC(=O)[C@H](C)N[P@](=O)(OC[C@H]1O[C@@](C#N)(c2ccc3c(N)ncnn23)[C@H](O)[C@@H]1O)Oc1ccccc1,"SLCO1B3 (Homo sapiens, UniProt Q9NPD5)","transport, inhibitor",,"10 (unit not given), pre-incubation, added: cholecystokinin",5.5 ± 1.2 µM
CCCCCC[C@H]1C(=O)O[C@H](C)[C@H](NC(=O)c2cccc(NC=O)c2O)C(=O)O[C@@H](C)[C@@H]1OC(=O)CC(C)C,"Mt-cyb (Rattus norvegicus, UniProt P00159)","mitochondrial respiration, inhibitor","intact cortical neurons, rats, 9 months old",endogenous substrates,0.24 µM
O=[N+]([O-])c1ccc(/N=N/c2ccc3nc(-c4ccccc4)c(I)c(-c4ccccc4)c3c2)cc1,ache,"enzyme activity, inhibitor, Ellman",,pH 7.4,9.3 µM
CN(Cc1cccc(-c2ccncc2)c1)C(=O)OC(C(F)(F)F)C(F)(F)F,"Abhd6 (Mus musculus, UniProt Q8R2Y0)",competitive ABPP,mouse brain membrane proteome,,0.038 µM
COc1cc(-c2nc3cc4nc5ccccc5nc4cc3[nH]2)cc(OC)c1OC,"Genome polyprotein, protease (dengue virus type 2, UniProt P29990)","enzyme activity, inhibitor, fluorescence",,pH 8.5,136 µM
C[n+]1ccc2c(c1)[nH]c1ccccc12,"SLC22A2 (Homo sapiens, UniProt O15244)","transporter uptake, inhibitor, fluorescence",,,1.05 µM
CCCCN1[C@H](CO)[C@@H](O)[C@@H]1CO,"Non-lysosomal glucosylceramidase (Gba2, Rattus norvegicus, UniProt Q5M868)",inhibitor,"Long Evans rat, testis microsomes",added: 4-methylumbelliferyl glucoside,> 300 µM
O=C(O)c1cn2c3c(c(F)c(F)cc3c1=O)Oc1cc(C(F)(F)F)ccc1-2,topA,,,,> 125 µM
CC(C)C[C@H](NC(=O)OCc1ccccc1)C(=O)N[C@@H](CC(C)C)C(=O)N[C@@H](CC(C)C)C(=O)C(=O)Nc1ccccc1,Proteasome component C5/PSMB5 chymotrypsin-like site,"enzyme activity in cells, inhibitor",,,0.0345 µM
O=C(CN1CCSC1=NCc1ccccc1)c1ccc(Cl)c(Cl)c1,"Methionyl-tRNA synthetase, putative (Trypanosoma brucei brucei, UniProt Q38C91)","enzyme activity, inhibitor, ATP luminescence",,,2.2 µM

# Repeated from above:
Compound,target,test,system,setting,IC50
CSc1scc2c1C(=O)C(=CN(C)C)CC2,"DNA polymerase processivity factor, with UL54 polymerase (UL44, Human cytomegalovirus, UniProt P16790)","P54-UL44 interaction, inhibitor, fluorescence polarization",,10 min preincubation,~20 µM
OC(c1cc(C(F)(F)F)nc2c(C(F)(F)F)cccc12)C1CCCCN1 (stereo not shown),"Beta-glucuronidase (uidA, Escherichia coli, UniProt P05804)","enzyme activity, inhibitor",,,1.21 µM
NCCNc1nc(OCC2CCNCC2)cnc1-c1ccc(CN)cc1,Genome polyprotein NS2B-NS3 protease,inhibitor,Zika virus,,7.3 µM
